Results pooled from the literature.
Several values in a cell are separate wells, animals, samples, runs or records. ± gives the spread as reported.
HTR3A: 5-hydroxytryptamine receptor 3A (HTR3A, Homo sapiens, UniProt P46098)
Chain of UniProt P46098 (whole entry, looked up): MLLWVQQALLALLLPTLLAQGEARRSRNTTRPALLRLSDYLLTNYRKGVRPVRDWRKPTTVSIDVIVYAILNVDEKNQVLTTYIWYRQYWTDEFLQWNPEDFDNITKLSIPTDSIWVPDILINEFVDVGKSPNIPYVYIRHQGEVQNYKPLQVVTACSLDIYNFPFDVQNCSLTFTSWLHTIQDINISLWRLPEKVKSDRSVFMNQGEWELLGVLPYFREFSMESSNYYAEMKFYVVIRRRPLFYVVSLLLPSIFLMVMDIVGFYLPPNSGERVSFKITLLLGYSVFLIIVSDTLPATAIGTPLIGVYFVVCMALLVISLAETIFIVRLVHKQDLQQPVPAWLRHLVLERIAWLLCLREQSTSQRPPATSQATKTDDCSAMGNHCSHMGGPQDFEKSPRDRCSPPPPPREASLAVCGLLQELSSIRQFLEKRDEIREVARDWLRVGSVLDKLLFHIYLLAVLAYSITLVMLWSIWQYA
CGAS catalytic domain; with DNA: Cyclic GMP-AMP synthase, catalytic domain; with DNA (CGAS, Homo sapiens, UniProt Q8N884)
Chain of UniProt Q8N884 (whole entry, looked up): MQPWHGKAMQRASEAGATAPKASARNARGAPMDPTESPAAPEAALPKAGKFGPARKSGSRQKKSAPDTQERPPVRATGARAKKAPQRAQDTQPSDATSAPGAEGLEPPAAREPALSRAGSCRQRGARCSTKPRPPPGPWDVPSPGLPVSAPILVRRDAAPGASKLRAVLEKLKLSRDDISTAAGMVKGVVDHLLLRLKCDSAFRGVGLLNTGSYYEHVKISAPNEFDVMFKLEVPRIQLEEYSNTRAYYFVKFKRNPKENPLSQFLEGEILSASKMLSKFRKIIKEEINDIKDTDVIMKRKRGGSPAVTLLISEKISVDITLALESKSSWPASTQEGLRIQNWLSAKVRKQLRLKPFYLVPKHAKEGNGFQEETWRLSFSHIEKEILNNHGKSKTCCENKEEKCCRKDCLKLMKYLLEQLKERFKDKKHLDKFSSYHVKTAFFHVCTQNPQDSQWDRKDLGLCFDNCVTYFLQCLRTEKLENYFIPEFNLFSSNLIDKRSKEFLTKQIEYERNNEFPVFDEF
Trypanothione synthetase: Trypanothione synthetase (Leishmania infantum, UniProt A4I2Z3)
Chain of UniProt P05067 (whole entry, looked up): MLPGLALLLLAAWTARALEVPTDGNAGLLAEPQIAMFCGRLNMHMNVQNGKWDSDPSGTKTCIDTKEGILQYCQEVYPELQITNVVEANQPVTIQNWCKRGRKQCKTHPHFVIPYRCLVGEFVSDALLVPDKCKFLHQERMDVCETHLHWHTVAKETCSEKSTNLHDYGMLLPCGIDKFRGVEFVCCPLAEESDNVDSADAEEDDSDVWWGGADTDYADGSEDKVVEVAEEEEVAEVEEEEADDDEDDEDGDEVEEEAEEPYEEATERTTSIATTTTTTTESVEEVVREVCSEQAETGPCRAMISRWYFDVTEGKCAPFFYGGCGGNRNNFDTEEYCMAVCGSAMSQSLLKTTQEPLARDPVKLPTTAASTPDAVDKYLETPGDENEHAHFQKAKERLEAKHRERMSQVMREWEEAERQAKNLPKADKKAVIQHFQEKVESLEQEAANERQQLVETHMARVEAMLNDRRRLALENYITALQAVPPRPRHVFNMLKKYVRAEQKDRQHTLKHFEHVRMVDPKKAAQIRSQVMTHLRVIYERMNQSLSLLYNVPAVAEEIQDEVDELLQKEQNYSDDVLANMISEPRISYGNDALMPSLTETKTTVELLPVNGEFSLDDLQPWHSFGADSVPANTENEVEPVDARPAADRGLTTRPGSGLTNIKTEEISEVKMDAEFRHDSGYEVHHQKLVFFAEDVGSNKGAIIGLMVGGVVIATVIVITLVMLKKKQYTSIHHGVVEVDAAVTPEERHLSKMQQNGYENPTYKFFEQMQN
Chain of UniProt P27815 (whole entry, looked up): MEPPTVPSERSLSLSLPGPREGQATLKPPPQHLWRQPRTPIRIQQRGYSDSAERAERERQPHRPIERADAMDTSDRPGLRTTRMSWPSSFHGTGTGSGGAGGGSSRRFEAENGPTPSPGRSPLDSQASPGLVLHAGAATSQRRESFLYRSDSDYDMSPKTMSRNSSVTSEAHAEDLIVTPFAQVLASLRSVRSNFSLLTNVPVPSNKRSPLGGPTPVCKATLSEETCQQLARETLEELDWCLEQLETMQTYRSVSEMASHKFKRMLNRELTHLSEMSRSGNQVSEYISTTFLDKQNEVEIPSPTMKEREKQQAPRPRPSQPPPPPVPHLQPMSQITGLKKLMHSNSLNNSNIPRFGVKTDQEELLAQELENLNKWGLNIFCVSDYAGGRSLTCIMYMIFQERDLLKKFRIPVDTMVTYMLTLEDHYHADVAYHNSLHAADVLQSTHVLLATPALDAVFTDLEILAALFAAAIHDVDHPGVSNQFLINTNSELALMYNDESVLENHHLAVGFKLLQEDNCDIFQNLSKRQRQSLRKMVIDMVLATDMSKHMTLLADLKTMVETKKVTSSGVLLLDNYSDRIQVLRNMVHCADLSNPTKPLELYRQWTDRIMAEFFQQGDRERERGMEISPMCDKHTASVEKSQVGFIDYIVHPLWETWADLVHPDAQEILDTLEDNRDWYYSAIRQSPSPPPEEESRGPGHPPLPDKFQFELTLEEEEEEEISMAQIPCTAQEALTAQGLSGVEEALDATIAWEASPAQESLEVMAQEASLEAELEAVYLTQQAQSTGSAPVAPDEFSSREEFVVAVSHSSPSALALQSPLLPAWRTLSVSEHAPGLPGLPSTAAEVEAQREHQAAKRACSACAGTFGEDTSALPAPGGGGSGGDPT
Chain of UniProt P04629 (whole entry, unmodified, looked up): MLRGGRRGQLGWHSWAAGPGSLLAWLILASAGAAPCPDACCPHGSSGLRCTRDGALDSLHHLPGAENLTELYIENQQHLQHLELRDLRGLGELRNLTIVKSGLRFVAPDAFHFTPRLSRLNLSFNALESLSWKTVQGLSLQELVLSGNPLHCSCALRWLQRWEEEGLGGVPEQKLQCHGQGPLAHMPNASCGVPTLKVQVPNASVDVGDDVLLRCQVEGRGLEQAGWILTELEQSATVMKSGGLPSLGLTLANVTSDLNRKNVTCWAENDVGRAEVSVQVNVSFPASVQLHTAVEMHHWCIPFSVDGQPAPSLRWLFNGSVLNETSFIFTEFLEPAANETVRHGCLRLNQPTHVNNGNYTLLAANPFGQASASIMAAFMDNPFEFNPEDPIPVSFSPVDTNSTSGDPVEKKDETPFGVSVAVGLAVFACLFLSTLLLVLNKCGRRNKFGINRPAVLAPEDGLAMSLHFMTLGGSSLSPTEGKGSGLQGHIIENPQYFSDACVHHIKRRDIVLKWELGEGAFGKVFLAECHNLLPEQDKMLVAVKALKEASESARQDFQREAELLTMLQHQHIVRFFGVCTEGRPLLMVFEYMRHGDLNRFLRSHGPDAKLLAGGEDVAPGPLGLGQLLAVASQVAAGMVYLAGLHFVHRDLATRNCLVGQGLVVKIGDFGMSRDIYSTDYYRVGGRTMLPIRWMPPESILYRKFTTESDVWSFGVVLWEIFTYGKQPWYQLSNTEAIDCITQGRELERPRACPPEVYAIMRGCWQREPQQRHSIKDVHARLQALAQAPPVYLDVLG
Chain of UniProt O75751 (whole entry, looked up): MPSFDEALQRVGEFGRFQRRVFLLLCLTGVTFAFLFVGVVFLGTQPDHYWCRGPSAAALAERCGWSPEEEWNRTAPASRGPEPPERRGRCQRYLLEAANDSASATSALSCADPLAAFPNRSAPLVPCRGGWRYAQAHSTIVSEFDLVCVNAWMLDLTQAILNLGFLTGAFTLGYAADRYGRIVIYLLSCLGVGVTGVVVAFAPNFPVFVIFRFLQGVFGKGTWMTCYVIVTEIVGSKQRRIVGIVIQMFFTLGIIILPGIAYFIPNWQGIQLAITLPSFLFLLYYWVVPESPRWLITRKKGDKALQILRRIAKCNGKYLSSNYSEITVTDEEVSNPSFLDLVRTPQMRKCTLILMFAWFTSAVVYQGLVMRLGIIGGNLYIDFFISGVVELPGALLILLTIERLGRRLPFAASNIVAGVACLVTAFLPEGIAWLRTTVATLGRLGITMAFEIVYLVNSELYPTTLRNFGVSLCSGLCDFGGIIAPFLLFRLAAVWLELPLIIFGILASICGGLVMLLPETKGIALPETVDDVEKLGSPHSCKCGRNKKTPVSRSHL
Chain of UniProt P31749 (whole entry, looked up): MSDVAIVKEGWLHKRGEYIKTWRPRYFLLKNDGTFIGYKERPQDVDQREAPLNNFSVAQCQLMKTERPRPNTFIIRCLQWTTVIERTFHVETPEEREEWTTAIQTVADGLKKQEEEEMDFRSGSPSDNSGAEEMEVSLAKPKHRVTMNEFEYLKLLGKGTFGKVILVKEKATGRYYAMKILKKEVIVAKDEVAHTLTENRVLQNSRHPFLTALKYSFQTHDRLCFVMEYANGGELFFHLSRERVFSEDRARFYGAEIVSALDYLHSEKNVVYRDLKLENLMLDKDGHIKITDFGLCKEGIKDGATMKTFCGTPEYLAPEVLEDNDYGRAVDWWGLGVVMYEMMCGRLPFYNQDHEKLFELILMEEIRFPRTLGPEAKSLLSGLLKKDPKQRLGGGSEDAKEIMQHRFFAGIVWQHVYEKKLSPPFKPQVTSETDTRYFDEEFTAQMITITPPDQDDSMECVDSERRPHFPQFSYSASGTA
Chain of UniProt P13945 (whole entry, looked up): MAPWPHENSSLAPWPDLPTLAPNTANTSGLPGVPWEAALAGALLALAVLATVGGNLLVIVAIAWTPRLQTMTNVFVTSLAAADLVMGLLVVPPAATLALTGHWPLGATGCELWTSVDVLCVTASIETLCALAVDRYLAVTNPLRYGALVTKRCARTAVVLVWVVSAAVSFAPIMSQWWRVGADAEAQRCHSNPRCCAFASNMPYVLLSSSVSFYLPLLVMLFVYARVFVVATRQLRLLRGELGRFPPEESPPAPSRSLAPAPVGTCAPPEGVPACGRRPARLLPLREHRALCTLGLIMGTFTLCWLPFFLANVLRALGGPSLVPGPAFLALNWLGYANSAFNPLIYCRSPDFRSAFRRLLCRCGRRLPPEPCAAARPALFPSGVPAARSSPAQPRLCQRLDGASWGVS

| SMILES | target or system | assay | system | setting | measurement | result |
| --- | --- | --- | --- | --- | --- | --- |
| COc1cccc(OC[C@@H]2CN(CCN3CCc4ccccc43)CCO2)c1 | HTR3A | radioligand binding |  | concentration not given, together with: [3H]GR65630 | inhibition | 12.2% |
| CC[C@@H]1[C@H](F)C(=O)N[C@@H]1COc1nccc2cc(C(N)=O)c(OC)cc12 | AKT1 (Homo sapiens, UniProt P31749) | ATP probe binding, KiNativ profiling, item: ATP loop probe site | THP-1 cell lysate | 0.01 mM | inhibition | -4.8% |
| Cc1nn(-c2nc3ccccc3[nH]2)c(O)c1C(c1ccccn1)c1c(C)nn(-c2nc3ccccc3[nH]2)c1O | CGAS catalytic domain; with DNA | liquid-liquid phase separation, inhibitor |  | 6.25 µM | inhibition | 44.8% |
| CN(c1ncccc1CNc1nc(Nc2ccc3c(c2)CC(=O)N3)ncc1C(F)(F)F)S(C)(=O)=O | JNK (human) | kinase activity |  | 1 µM | inhibition | 7.8% |
| O=C(Nc1cccc2c(=O)cc(-c3nnn[nH]3)oc12)c1ccc(OCCCCc2ccccc2)cc1 | Volume-regulated anion channel subunit LRRC8C, part LRRC8A IL1 chimera (LRRC8C, Homo sapiens, UniProt Q8TDW0, E6A) | ion current, inhibitor, whole-cell patch clamp | HCT LRRC8-/- cells | 1 µM, +100 mV | inhibition | 80.8% and 91.1% and 86.4% and 90.8% |
| CN(C(=O)n1cnc(-c2ccc[n+]([O-])c2)c1)C1CCCCC1 | SLC29A1 (Homo sapiens, UniProt Q99808) |  |  | concentration not given | inhibition | 9.73% |
| Cc1nn(-c2nc3c(F)cc(F)cc3s2)c(O)c1C(c1ccccc1C(=O)O)c1c(C)nn(-c2nc3c(F)cc(F)cc3s2)c1O | CGAS catalytic domain; with DNA | cGAS phase separation, inhibitor |  | 2.5 µM | inhibition | 99.9% |
| O=C1Cc2cc(-c3csc(NCCc4cccs4)n3)cc3c2N1CCC3 | Trypanothione synthetase | enzyme activity |  | 25 µM | inhibition | 74.4 ± 18.1% |
| COc1c(C#N)ccnc1N1C2CCC1CN(C(=O)c1cccnc1-n1cccn1)C2 | GABA-gated chloride channel | binding |  | 10 µM | inhibition | 9.6% |
| O=C(c1ccc([C@H]2[C@@H](F)[C@@H](F)C[C@@H](F)[C@H]2F)cc1)N1CC(O)C1 |  | liver microsome stability | human liver microsomes | 1 µM, without NADPH | hepatic clearance | 3.9 mL/min/kg |
| COc1cc(C(=O)NS(=O)(=O)c2ccccc2C)ccc1Cc1cn(C)c2ccc(NC(=O)OC3CCCC3)cc12 | Volume-regulated anion channel subunit LRRC8C, part LRRC8A IL1 chimera (LRRC8C, Homo sapiens, UniProt Q8TDW0, L105R) | ion current, inhibitor, whole-cell patch clamp | HCT LRRC8-/- cells | 10 µM, +100 mV | inhibition | 61% and 86.3% and 67.2% and 83.4% and 75.3% and 88.6% |
| O=C(CN1CCO[C@@H](COc2cccnc2)C1)N1CCc2ccccc21 | HTR3A | radioligand binding |  | concentration not given, together with: [3H]GR65630 | inhibition | 6.9% |
| CCc1nn(C)c2nc(-c3ccc(C(=O)O)cc3)nc(NCc3ccc(F)cc3)c12 | PDE4A (Homo sapiens, UniProt P27815) | enzyme activity |  | 10 µM, together with: [3H]cAMP | inhibition | 27.7% |
| C#Cc1cc(-c2cc(Nc3nc(N[C@@H](C)c4ccc(F)cn4)ncc3Cl)n[nH]2)ccc1C=O | NTRK1 (Homo sapiens, UniProt P04629, A608D) | enzyme activity, inhibitor |  | 0.2 µM | inhibition | 102% |
| C[C@@H]1CCO[C@H]2Cn3cc(C(=O)NCc4ccc(F)cc4F)c(=O)c(O)c3C(=O)N12 | SLC22A3 (Homo sapiens, UniProt O75751) | transport | MDCK-II, transfected | 100 µM, together with: MPP+ 2 µM | inhibition | 7.27% |
| COc1ccc(F)cc1C(=O)NCc1ccc(-c2nn([C@@H](C)C(F)(F)F)c(N)c2C(N)=O)cc1 | PIK3CB (Homo sapiens, UniProt P42338) | target engagement, competitive chemoproteomics | human PBMCs | 0.1 µM | inhibition | -4.7% |
| O=C(NO)c1ccc(CN2CCCCc3ccccc32)c(F)c1 | ADRB3 (Homo sapiens, UniProt P13945) | radioligand binding, radioligand displacement |  | 10 µM | inhibition | 6.54% |

| SMILES | target or system | assay | system | setting | measurement | result |
| --- | --- | --- | --- | --- | --- | --- |
| CCCCCCCCN(CCC(=O)Nc1ccccc1)C(=O)[C@H]1CCCN1 | Protein-S-isoprenylcysteine O-methyltransferase (Homo sapiens, UniProt O60725) | enzyme activity | Sf9 membranes | 50 µM, together with: biotin-farnesyl-L-cysteine | inhibition | 61% |
| Cc1cc2c(cc1N1C(=O)c3cccc4c(CCCO)ccc(c34)C1=O)n(C)c(=O)n2C (racemic) | ATAD2 (Homo sapiens, UniProt Q6PL18) | binding, BROMOscan binding |  | 1000 nM | inhibition | 87% |
| NC/C(=C\F)COc1cccc(Cn2c(=S)[nH]c(=O)c3[nH]cnc32)c1 | Myeloperoxidase (MPO, Homo sapiens, UniProt P05164) | enzyme activity |  | 0.1111 µM | inhibition | 90.8% |
| CN1CCN(C(=O)c2ccc([C@H]3[C@@H](F)[C@@H](F)C[C@@H](F)[C@H]3F)cc2)CC1=O |  | liver microsome stability | dog liver microsomes | 1 µM | hepatic clearance | 7.3 mL/min/kg |
| Cc1ncccc1OC[C@@H]1CN(CCN2CCc3ccccc32)CCO1 | HTR3A | radioligand binding |  | concentration not given, together with: [3H]GR65630 | inhibition | -15.2% |
| Cc1nn(-c2nc3ccccc3[nH]2)c(O)c1C(c1ccccc1C(=O)O)c1c(C)nn(-c2nc3ccccc3[nH]2)c1O | CGAS (Homo sapiens, UniProt Q8N884) | enzyme activity, inhibitor, pyrophosphatase-coupled |  | 25 µM, 1.5 h, together with: HT-DNA | inhibition | 86.6% |
| CN1CCN(c2cc(-c3ccncc3)c(-c3ccc4ccccc4c3)nn2)CC1 | GLP1R (Homo sapiens, UniProt P43220) | antagonist, FLIPR |  | 10 µM | inhibition | 31% |
| CNc1ccc(-c2nc3ccc(O)cc3s2)cc1 | Amyloid-beta precursor protein, amyloid-beta (APP, Homo sapiens, UniProt P05067) | binding, competition binding | amyloid-beta aggregates | 11.11 nM, together with: tritiated amyloid ligand | inhibition | 78.1% and 66.7% |
| COc1cc(-c2cc(C(C)=O)n3ccccc23)c(OC)cc1Cn1ccnc1 | TRIM24 (Homo sapiens, UniProt O15164) |  |  | 1 µM | inhibition | -3.89% |
| Clc1cccc(OC[C@H]2CN(CCN3CCc4ccccc43)CCO2)c1 | HTR3A | radioligand binding |  | concentration not given, together with: [3H]GR65630 | inhibition | -3.7% |
| OO | Histone acetyltransferase GCN5, with Ada2 and Ada3 (Saccharomyces cerevisiae S288c, UniProt Q03330) | enzyme activity, inhibitor |  | 62.5 µM, Gcn5-Ada2-Ada3 complex, 1 mM DTT, together with: [3H]acetyl-CoA | inhibition | 17 ± 10% |
| c1cncc(OC[C@H]2CN(CCN3CCc4ccccc43)CCO2)c1 | HTR3A | radioligand binding |  | concentration not given, together with: [3H]GR65630 | inhibition | -16% |
| CCc1oc2ccccc2c1C(=O)c1cc(Br)c(O)c(Br)c1 | SLC22A12 (Homo sapiens, UniProt Q96S37, F365A) | uric acid uptake | HEK293T transfected with SLC22A12 F365A | 0.5 µM, 10 min, 37 °C, mean, together with: [14C]urate 200 µM | inhibition | 53.2% |
| O=C(CN1CCO[C@@H](COc2ccccn2)C1)N1CCc2ccccc21 | HTR3A | radioligand binding |  | concentration not given, together with: [3H]GR65630 | inhibition | -7% |
| O=C(NCCCNS(=O)(=O)c1ccc(OC(F)(F)F)cc1)C1=Cc2ccccc2S1(=O)=O | PTPRC (Homo sapiens, UniProt P08575) | enzyme activity |  | 25 to 30 µM, phosphatase selectivity panel | inhibition | no inhibition |
| O=C1c2ccccc2CCN1CCCCN1CCN(c2ccccn2)CC1 | HTR3A | radioligand binding |  | concentration not given, together with: [3H]GR65630 | inhibition | 36.6% |
| C=CC1=C(C)C2=Cc3c(C=C)c(C)c4[n]3[Sn]([Cl])([Cl])[n]3c(c(C)c(CCC(=O)O)c3=CC3=NC(=C4)C(C)=C3CCC(=O)O)=CC1=N2 | Trypanothione synthetase | enzyme activity |  | 25 µM | inhibition | 5.1 ± 7.4% |
